Measured values collected from several papers.
± marks the error that the study gave.
FGFR3: Fibroblast growth factor receptor 3 (FGFR3, Homo sapiens, UniProt P22607)
UniProt P22607, sequence (whole entry, looked up): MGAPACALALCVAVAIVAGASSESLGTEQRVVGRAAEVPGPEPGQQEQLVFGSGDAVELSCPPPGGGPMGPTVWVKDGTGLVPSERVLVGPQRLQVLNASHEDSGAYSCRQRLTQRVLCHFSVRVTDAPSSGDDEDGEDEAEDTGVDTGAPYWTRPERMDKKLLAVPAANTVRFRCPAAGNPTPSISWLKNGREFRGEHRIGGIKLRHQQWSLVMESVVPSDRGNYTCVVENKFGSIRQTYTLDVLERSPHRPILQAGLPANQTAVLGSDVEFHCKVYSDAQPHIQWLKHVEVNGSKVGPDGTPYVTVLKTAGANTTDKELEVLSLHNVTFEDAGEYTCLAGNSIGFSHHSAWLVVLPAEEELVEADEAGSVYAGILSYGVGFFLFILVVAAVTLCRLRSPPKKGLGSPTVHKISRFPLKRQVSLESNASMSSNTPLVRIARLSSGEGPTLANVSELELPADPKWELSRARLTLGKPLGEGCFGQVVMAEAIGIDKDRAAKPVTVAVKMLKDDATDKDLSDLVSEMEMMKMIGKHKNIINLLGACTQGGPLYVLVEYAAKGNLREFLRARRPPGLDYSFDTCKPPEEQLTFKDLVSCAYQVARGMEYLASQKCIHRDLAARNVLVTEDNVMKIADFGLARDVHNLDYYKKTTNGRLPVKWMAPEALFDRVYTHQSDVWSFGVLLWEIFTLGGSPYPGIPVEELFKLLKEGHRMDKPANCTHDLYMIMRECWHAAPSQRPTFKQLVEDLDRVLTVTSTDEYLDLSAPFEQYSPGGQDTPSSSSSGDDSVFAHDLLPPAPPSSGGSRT
EPHA2: Ephrin type-A receptor 2 (EPHA2, Homo sapiens, UniProt P29317)
UniProt P29317, sequence (whole entry, looked up): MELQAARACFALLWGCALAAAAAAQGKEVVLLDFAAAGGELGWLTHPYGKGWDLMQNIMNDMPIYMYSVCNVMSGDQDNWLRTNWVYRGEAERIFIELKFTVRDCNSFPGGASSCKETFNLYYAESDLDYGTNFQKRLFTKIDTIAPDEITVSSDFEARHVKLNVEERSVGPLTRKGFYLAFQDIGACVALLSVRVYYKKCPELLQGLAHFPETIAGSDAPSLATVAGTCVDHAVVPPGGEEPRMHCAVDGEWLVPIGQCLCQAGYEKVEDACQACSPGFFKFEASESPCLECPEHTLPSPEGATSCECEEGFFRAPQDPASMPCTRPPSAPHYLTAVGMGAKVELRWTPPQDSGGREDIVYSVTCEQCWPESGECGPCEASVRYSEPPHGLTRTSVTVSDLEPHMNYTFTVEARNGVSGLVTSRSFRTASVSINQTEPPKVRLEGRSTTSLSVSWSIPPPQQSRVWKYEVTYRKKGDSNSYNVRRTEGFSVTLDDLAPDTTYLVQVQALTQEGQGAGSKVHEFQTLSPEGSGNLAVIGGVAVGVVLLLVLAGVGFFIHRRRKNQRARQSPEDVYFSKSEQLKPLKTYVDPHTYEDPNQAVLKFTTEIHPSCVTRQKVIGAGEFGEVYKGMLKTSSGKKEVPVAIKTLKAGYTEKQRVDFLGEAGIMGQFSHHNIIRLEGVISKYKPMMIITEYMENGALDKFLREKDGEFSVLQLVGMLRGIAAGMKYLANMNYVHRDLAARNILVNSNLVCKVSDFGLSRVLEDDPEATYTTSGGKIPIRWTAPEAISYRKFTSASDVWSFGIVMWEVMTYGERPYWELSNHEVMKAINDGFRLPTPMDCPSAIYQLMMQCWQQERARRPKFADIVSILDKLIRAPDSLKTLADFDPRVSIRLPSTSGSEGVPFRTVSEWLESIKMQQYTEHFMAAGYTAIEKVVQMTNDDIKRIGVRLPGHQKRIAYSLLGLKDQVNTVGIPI
HIPK3: Homeodomain-interacting protein kinase 3 (HIPK3, Homo sapiens, UniProt Q9H422)
UniProt Q9H422, sequence (whole entry, looked up): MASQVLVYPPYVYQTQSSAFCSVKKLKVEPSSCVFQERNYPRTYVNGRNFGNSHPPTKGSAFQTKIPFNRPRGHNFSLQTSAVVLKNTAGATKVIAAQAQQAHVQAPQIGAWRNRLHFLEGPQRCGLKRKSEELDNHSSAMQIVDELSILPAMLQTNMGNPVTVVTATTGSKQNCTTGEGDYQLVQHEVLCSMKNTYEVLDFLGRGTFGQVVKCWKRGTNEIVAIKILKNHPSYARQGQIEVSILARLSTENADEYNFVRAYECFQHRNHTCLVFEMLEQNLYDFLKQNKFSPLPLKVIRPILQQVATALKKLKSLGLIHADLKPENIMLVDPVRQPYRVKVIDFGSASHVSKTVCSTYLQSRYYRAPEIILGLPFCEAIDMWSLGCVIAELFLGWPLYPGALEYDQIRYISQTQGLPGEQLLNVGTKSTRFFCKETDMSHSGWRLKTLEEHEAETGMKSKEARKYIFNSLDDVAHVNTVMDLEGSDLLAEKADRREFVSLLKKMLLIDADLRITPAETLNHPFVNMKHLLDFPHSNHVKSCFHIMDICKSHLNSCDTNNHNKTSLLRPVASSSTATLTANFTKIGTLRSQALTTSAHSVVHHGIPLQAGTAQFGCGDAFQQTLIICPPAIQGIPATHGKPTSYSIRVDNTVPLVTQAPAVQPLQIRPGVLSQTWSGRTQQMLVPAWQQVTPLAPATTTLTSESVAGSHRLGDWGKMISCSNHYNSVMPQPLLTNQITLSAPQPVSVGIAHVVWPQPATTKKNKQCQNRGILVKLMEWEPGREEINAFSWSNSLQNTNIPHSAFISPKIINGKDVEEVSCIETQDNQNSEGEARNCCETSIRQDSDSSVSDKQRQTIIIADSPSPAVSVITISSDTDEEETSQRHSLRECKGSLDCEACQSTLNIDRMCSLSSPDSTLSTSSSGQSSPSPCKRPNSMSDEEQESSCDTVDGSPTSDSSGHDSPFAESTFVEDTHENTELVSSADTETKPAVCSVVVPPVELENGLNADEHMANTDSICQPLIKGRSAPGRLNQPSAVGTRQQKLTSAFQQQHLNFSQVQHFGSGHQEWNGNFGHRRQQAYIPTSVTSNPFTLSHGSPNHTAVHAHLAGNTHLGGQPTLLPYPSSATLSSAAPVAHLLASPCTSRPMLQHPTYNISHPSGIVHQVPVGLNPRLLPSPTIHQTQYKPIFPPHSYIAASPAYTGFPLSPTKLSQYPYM
P2RX7: P2X purinoceptor 7 (P2RX7, Homo sapiens, UniProt Q99572)
UniProt Q99572, sequence (whole entry, unmodified, looked up): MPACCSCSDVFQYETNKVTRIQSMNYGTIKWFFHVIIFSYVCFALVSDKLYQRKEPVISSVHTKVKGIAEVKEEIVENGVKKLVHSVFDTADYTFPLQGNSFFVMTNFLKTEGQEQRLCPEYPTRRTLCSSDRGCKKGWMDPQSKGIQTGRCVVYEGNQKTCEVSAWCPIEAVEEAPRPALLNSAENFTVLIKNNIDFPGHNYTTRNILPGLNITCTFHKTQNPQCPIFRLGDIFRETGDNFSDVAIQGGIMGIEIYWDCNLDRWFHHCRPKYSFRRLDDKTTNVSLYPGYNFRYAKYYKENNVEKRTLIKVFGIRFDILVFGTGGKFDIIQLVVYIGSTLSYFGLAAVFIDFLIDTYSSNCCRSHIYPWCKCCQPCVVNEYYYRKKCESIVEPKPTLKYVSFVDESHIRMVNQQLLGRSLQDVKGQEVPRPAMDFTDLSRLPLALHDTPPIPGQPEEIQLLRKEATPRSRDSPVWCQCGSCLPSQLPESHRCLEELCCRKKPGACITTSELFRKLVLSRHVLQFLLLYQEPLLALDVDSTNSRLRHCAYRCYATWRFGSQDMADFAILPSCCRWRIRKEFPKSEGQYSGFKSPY
PRKD2: Serine/threonine-protein kinase D2 (PRKD2, Homo sapiens, UniProt Q9BZL6)
UniProt Q9BZL6, sequence (whole entry, looked up): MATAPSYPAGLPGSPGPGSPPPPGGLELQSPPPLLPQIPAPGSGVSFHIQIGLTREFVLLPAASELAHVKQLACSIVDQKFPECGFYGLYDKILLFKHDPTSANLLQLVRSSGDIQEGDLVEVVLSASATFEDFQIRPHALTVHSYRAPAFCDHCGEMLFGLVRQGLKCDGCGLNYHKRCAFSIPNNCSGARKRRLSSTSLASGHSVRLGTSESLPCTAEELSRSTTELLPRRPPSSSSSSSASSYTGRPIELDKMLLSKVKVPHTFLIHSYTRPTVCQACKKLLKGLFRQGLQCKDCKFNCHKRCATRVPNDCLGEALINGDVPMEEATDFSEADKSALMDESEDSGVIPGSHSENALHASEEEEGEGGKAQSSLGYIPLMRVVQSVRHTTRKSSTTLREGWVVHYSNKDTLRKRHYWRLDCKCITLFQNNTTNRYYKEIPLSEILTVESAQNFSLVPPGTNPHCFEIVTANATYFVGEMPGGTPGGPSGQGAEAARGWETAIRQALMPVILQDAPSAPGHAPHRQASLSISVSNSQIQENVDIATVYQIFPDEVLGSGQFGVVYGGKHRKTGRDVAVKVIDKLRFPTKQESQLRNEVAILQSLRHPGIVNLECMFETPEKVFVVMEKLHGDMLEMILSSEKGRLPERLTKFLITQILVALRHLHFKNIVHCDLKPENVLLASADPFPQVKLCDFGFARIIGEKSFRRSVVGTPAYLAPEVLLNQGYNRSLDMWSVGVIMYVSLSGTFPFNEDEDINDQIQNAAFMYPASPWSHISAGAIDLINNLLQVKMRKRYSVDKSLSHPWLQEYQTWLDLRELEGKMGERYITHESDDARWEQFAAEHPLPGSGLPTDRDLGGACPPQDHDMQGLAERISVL
UniProt P49674, sequence (whole entry, looked up): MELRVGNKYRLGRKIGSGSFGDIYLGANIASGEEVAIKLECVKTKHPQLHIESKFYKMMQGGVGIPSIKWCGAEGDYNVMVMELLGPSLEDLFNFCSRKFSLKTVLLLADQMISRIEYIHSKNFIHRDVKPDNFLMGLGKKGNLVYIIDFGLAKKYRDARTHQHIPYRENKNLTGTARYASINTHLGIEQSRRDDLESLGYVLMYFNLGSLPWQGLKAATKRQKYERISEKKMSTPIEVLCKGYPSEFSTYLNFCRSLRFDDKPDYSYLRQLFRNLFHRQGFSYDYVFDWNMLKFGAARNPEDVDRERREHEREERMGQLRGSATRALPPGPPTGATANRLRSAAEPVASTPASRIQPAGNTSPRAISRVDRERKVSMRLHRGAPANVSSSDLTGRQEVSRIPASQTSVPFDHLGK

SMILES | target | assay | test system | setting | how to read | remaining activity
COc1ccc(F)cc1C(=O)NCc1ccc(-c2nn([C@@H](C)C(F)(F)F)c(N)c2C(N)=O)cc1 | FGFR3 | kinase activity, inhibitor, HotSpot radiometric | – | 100 nM, together with: ATP 10 µM | – | 93.8 ± 1.1%
O=C(NC1CCC1)c1ccc2nc(-c3cccc(NS(=O)(=O)NCCN4CCCCC4)c3)cn2c1 | Bone morphogenetic protein receptor type-1A (BMPR1A, Homo sapiens, UniProt P36894) | enzyme activity | – | 10 µM | – | 100%
COc1cc(F)ccc1-c1ncnc(Nc2cccc(C[S@](C)(=N)=O)c2)n1 | EPHA2 | kinase activity | – | 10 µM, together with: 10 µM ATP | – | 41%
COc1cc(Nc2ncc3c(n2)-c2ccc(Cl)cc2C(c2c(F)cccc2OC)=NC3)ccc1C(=O)O | p38 gamma (MAPK12) | inhibitor, biochemical kinase | – | 1 µM | – | 99%
C=CC(=O)N1CCC[C@@H](n2nc(-c3ccc(Oc4ccccc4)cc3)c3c(N)ncnc32)C1 | BDNF/NT-3 growth factors receptor (NTRK2, Homo sapiens, UniProt Q16620) | – | – | 0.1 µM | – | 290%
NC/C(=C\F)COc1cccc(Cn2c(=S)[nH]c(=O)c3[nH]cnc32)c1 | Peroxidasin homolog (PXDN, Homo sapiens, UniProt Q92626) | Amplex UltraRed | – | 60 µM | baseline: control | 9.76%
O=C(O)c1ccc(Nc2ncc3c(n2)-c2ccc(Cl)cc2C(c2c(F)cccc2F)=NC3)cc1 | EphA1(h) | kinase activity | – | 1 µM | – | 29%
CC(C)OCCn1c(=S)[nH]c(=O)c2[nH]ccc21 | Myeloperoxidase (MPO, Homo sapiens, UniProt P05164) | chlorination activity | – | 0.156 µM, 0.1 h, together with: iodide, TMB | – | 96.3%
O=C1NC(=O)/C(=C/c2ccc(-c3ccc(F)cc3O)o2)S1 | HIPK3 | enzyme activity | – | 10 µM | – | 23%
COc1cc(N2CCN(C)CC2)ccc1Nc1nc(N)n(C(=O)NCc2ccccc2S(=O)(=O)C(C)C)n1 | Microtubule-associated serine/threonine-protein kinase 1 (MAST1, Homo sapiens, UniProt Q9Y2H9) | enzyme activity | – | 10 µM | baseline: control | 30%
COc1ccc2cc3[n+](cc2c1OC)CCc1cc2c(cc1-3)OCO2 | P2RX7 | ATP-evoked current, inhibitor, whole-cell patch clamp | HEK293 transfected | 0.3 µM | – | 92.6%
CC#CC(=O)N1CCC[C@H]1c1nc(-c2ccc(C(=O)Nc3ccccn3)cc2)c2c(N)nccn12 | Casein kinase I isoform epsilon (CSNK1E, Homo sapiens, UniProt P49674) | kinase activity, inhibitor, HotSpot radiometric | – | 100 nM, together with: ATP 10 µM | – | 106 ± 2.4%
COc1cc(N2CCN(C)CC2)ccc1Nc1nc(N)n(C(=S)NCc2c(Cl)cccc2Cl)n1 | HIPK3 | enzyme activity | – | 10 µM | baseline: control | 18%
CNc1ncc2c(/C=C/C(=O)N3CCC(OC)CC3)nn(Cc3cccc(C(F)(F)F)c3)c2n1 | PRKD2 | kinase activity, inhibitor | – | 1 µM | baseline: untreated control | 92%
C=CC(=O)N1CCC([C@@H]2CCNc3c(C(N)=O)c(-c4ccc(Oc5ccccc5)cc4)nn32)CC1 | Cyclin-dependent kinase 5, with p25 (CDK5, Homo sapiens, UniProt Q00535) | kinase activity, inhibitor, HotSpot radiometric | – | 100 nM, together with: ATP 10 µM | – | 93.3 ± 0.9%
CC(C)C(=O)Nc1n[nH]c2cc(-c3cccc(NS(=O)(=O)C4CC4)c3)ccc12 | Phosphatidylinositol 4-phosphate 5-kinase type-1 gamma (PIP5K1C, Homo sapiens, UniProt O60331) | ADP-Glo | – | 41.2 nM | baseline: DMSO | 98.5%
C=CC[C@H]1c2ccc(OC)c(OC)c2CN2CCc3cc4c(cc3[C@@H]12)OCO4 | P2RX7 | ATP-evoked current, inhibitor, whole-cell patch clamp | HEK293 transfected | 10 µM | – | 69.4%
CC(C)(C)c1nc(-c2cccc(NS(=O)(=O)c3c(F)cccc3F)c2F)c(-c2ccnc(N)n2)s1 | Cell division cycle 7-related protein kinase, with DBF4 (CDC7, Homo sapiens, UniProt O00311) | kinase activity, radiometric 33PanQinase | – | 1 µM | baseline: DMSO | 92%
C=CC(=O)N1CCC[C@@H](n2nc(-c3ccc(Oc4ccccc4)cc3)c3c(N)ncnc32)C1 | FGFR3 | kinase activity, inhibitor, HotSpot radiometric | – | 100 nM, together with: ATP 10 µM | – | 74.4 ± 0.8%
Cc1cc(Nc2cc(N3CCN(C)CC3)nc(Sc3ccc(NC(=O)C4CC4)cc3)n2)[nH]n1 | EPHA2 | kinase activity, KinaseProfiler | – | 0.03 µM, species human | baseline: control | 87%
COc1cc(-c2cncc3c2CN(C)Cc2cc(N4CCNCC4)ccc2-3)cc(OC)c1OC | PRKD2 | kinase activity | – | 1 µM, human enzyme, together with: ATP 10 µM | baseline: DMSO control | 100%
